Results of several laboratories.
Each numbered part is a random draw from the data of one study; scales do not carry over between parts.

Sample 1
Target: Histone acetyltransferase KAT6A, both winged helices, GST fusion (KAT6A, Homo sapiens, UniProt Q92794, residues 1-181)
Technique: protein binding microarray
Molecule type: double-stranded DNA, one strand shown
Matrix: in vitro
Tested at: not given
Notes: 8-mer, flanks averaged, mean of 2 arrays, mostly near background
Reference: not given
Reading: higher = stronger binding
Target sequence (chain): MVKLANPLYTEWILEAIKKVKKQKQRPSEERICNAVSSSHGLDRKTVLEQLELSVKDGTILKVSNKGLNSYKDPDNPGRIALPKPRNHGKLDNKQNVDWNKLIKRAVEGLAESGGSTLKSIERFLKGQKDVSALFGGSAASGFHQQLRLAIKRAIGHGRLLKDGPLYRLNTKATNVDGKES
Oligonucleotide | E-score
GAGCTCAC | -0.046
CTCCATGA | -0.0276
AACATACG | 0.182
TAATGCTA | -0.0246
GGTAACAC | 0.032
ATTTGGAC | -0.058
AAATCCGG | 0.0856
ATATCAGG | -0.157
ACCAATCT | -0.202
AACAAGAG | -0.234
CCATCCTC | -0.0873
ACCCGACG | 0.255
CCGACTTC | 0.0801
AACCACTC | -0.142
GGATTTAC | 0.0374
CCTCTATA | -0.0965
GAACATGC | 0.0442
GCGGGCGA | 0.239
ATTACAAG | -0.0136

Sample 2
Target: Prothrombin, mature alpha-thrombin (F2, Homo sapiens, UniProt P00734)
Technique: aptamer microarray, sandwich
Molecule type: DNA with 2'F-ANA
Matrix: in vitro
Tested at: 200 nM
Notes: whole 15-mer aptamer, many near background
Added: Cy3 exosite-II aptamer, 400 nM
Reading: higher = stronger binding
Oligonucleotide: GGTTGGTGTGGTTGG
Modification | mean fluorescence intensity [a.u.]
2'F-ANA at 1 4 7 8 11 12 13 14 | 59.2
2'F-ANA at 6 7 8 9 10 13 14 | 119
2'F-ANA at 1 3 5 6 7 8 9 11 13 14 | 74.2
2'F-ANA at 3 6 7 11 12 | 1180
2'F-ANA at 1 2 4 7 10 11 14 15 | 47
2'F-ANA at 1 3 4 7 9 10 12 13 14 15 | 57.3
2'F-ANA at 1 3 4 6 9 12 13 | 207
2'F-ANA at 1 2 3 4 7 8 12 15 | 517
2'F-ANA at 1 2 4 6 8 9 10 12 | 57.6
2'F-ANA at 2 7 8 9 10 12 13 15 | 189
2'F-ANA at 2 5 6 7 10 11 12 13 15 | 51.1
2'F-ANA at 1 3 4 7 9 10 15 | 62.6
2'F-ANA at 2 3 6 8 11 | 691
2'F-ANA at 2 4 5 9 10 14 15 | 45
2'F-ANA at 2 3 5 6 8 9 12 13 15 | 147
2'F-ANA at 4 8 9 10 11 12 15 | 101

Sample 3
Target: RNA binding protein fox-1 homolog 2, RRM domain, GST-SBP tag (RBFOX2, Homo sapiens, UniProt O43251-10, residues 100-194)
Technique: RNA Bind-n-Seq
Molecule type: RNA
Matrix: in vitro
Tested at: 365 nM
Notes: natural RNA segment, single round, ends assumed
Reference: no-protein control
Reading: higher = stronger binding
All sequences stand within: GGGAGUUCUACAGUCCGACGAUC … UGGAAUUCUCGGGUGCCAA
Residues (chain): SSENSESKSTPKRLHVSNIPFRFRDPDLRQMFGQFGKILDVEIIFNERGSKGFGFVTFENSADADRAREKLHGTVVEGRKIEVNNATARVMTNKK
Oligonucleotide | RBNS enrichment (R)
UCAAUUUGUAAAGAAAUUUUUAUUAAACACUGUAGAAAAAGUGAAGCUGAGAACUCUUUUGUGCAUUUAUAUUUCCUACUGAAUUCUGGUAGCCCACUUUUAACAUUGUA | 2.84
AAGGGAUUGGCACCAAGACCAGGCAGCCCUUGAUUUCCUCGCUCUCUGGAGCUAGUCAGUGUCCUAGACCACCAGGACCUCUACUCAUUCAUGAGUUAGUUAUGCAGCAA | 0.38
GACCUCUUUCUGCACGAAAAAAGAAAGAAAAAUGACAGCUGGAAAAAGUCCUUUGUAUUGGCACAUGAUAAAUCUUGAUGACGGGCUAUAUUCUGAACAAACGCUUGCAC | 21.7
AGGUUUCUAAAAGCAAAAUAAUGAAUGGCCACUGAUGAAAAAUUGUAUUAUUUAUUCAUUCACUGUUUUCUAGUGUUUCUGUGUUUAUUACUGUUCAGCAUCAUCUUGGU | 0.714
UCUUGGUGUUUUCACGUUCGUCUGUGAGGACUCAUAGACUUACAGAAUGAUGCCGAAUGGAAUGUUUUGUGCAUGACCUUUUAACCUUUGGCUAUUGCCAAUUCCCCACU | 1.02
UGUAGUUUUAAUUAUGCUGCAAUGUAUAAUCUGGUGUGUUAUUUAAACAGCACUAGUACUGUACACUGGUUUUUUUCCCUUGUGUUUGCUGUUGCACACUGAUUGCUGAG | 0.88
AUUGCACUUCACUCUGUUUUCAGGGGGAUUGGGGACAUUCGGGGAGACUGUAUCUGUCUACUUUGUGUGACUGUUUUGAGGGACUGUCCCAUCAGUGAACAGAUUGCAUG | 6.12
UCACGUCUUACUCUGAGGUGUGUGACAUCUUUAGUGUGUGAGAUUUGGAUUCCUAACCUUAAGUGAGCUGUAAACAAUGUGAAUGGAGCUCUGGCCAGUCACCUUUAACC | 0.455
UCAGUUCAGCUUAAAGAACGCCAGUUAGGCCGGGCGUGGUGGCGCACGUCUUUAAUCCCAGCACUUGGGAGGCAGGCAGAGAUAGGCGGAUUUCUGAGUUUGAGGCCAGC | 0.527
CACACAGCCUCAGACUUACAAACUGAUUAUACUCUAAAAGUUUGUAUGUCAGUUAGCUAAAACUUCAGAAUACAUUUCUCCCUAUAAAGAGUUAUAAAUGAUGGUUUAGU | 0.338
GGACAGCUGCAGCCUGGCUAGGCCACUGACCCCACAGUCCAUAUAAGCUGACCAUGCAGCUCGCUGCUGGCCCCCAGUAAGCACCCCUUCCCACCGUCCACUCCCCGUCC | 0.367
AAAAAUAUGCAUUUCACCCCACAUGACUAGGAAUCCACAUCAGAAUGAUACAGAGUUAGCAGGUUUUUCUAAGGAAAUGCCAUUCAAAUGCCUCCUAACUUUUAUAGUUA | 3.81

Sample 4
Target: Interferon regulatory factor 7, full length, phosphomimetic (IRF7, Homo sapiens, UniProt Q92985, residues 1-503, S101K/S471D/S472D/S475D/S476D/S477D/S483D/S484D/S487D)
Technique: protein-binding microarray
Molecule type: double-stranded DNA, one strand shown
Matrix: in vitro
Tested at: 250 nM
Notes: 60-bp whole probe
Added: salmon DNA 0.4 mg/ml
Reference: random background probes
Reading: higher = stronger binding
All sequences stand within: GCCTAGCAC … GTCTTGATTCGCTTGACGCTGCTG
Target sequence (chain): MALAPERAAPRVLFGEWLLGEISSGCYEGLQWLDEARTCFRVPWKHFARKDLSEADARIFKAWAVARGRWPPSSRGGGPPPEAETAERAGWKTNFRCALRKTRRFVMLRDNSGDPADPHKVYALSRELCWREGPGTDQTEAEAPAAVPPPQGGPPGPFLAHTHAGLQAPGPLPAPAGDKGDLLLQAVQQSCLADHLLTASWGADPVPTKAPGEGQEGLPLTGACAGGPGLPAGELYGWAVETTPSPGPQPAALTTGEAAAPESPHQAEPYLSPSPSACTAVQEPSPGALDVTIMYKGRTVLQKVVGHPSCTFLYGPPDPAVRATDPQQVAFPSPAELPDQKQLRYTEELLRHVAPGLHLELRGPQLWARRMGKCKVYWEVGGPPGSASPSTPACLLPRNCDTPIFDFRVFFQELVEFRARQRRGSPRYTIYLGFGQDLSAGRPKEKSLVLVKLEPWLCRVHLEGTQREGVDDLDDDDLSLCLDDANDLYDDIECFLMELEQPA
Oligonucleotide | log fluorescence [z-score]
TTAGATTTCGGGTTTTGATTAGTGCTA | 2.19
GAGGAACTGAGTATCGAGACGTGCTAG | 0.0481
TTTCTAATGTTTTTTAAAGTGTGCTAG | 0.914
GAAGGACTGCTACTGCTGACGTGCTAG | -0.577
TTAGAACTGGGGACTTGATTAGTGCTA | -0.299
TTAGGACTGCTTCTCCTTTTGTGCTAG | 0.713
TTAGGTCTGGACACTGGGTTAGTGCTA | -0.654
GGTTTTTTTTTAATTGAAATGTGCTAG | 1.95
ACAGCAAGCAGGGCCAGCCCGTGCTAG | -1.2
GACGGCATCGGACTGGGGACGTGCTAG | -0.733
TCACCTGAATGAAAACATACTGTGCTA | -0.232
TCAAATATCTTTGTTGAACTGTGCTAG | 0.109
GACGATTCCAGTTTCGAGACGTGCTAG | 4.87
TGTGCTTTCCTGATGGTTTTGTGCTAG | 0.675
TTAGGTATCGACTATCTGTTAGTGCTA | 0.19
GACGATTTCAGACTTGAGACGTGCTAG | 0.204
GACAGTTTCCTTTCCCTGACGTGCTAG | 4.91
GACGGTATCGGTTTCGCGACGTGCTAG | 5.3

Sample 5
Target: ATP-dependent RNA helicase DDX3X, helicase core (DDX3X, Homo sapiens, UniProt O00571, residues 132-607)
Sequence of UniProt O00571 (132-607, looked up): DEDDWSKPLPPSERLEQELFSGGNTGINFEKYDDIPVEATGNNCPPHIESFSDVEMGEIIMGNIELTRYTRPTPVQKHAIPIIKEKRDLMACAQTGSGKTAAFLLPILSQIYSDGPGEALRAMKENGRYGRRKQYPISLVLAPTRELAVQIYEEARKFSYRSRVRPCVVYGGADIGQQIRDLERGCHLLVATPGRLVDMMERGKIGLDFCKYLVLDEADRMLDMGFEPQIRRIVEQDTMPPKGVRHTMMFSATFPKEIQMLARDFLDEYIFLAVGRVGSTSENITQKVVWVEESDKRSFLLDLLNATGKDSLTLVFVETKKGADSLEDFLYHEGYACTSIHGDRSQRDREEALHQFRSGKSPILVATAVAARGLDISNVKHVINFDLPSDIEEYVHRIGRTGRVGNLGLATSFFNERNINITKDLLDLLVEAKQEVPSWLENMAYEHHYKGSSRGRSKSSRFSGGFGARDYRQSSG
Technique: RNA Bind-n-Seq
Molecule type: RNA
Matrix: in vitro
Tested at: not given
Notes: 4-mer, random 30-nt RNA, single round
Added: RocA, ADP, phosphate
Reference: input library
Reading: higher = stronger binding
Oligonucleotide | 4-mer enrichment [fold]
GUAG | 1.33
UGCG | 0.873
GUAU | 1.03
GGCG | 1.11
AACG | 0.89
AAAC | 0.812
UGUG | 1.17
GCUU | 0.73
GCGU | 1.04
GCUA | 0.733
CAUC | 0.676
CGAU | 0.71
CUGC | 0.719
UCAG | 0.811
AAUA | 1.02
UUGG | 1.09
UUCG | 0.839
GUCA | 0.842
CAUG | 0.84
CUUC | 0.646
AGGC | 0.897
AAUC | 0.775

Some of these lines once more (sample 5):
Oligonucleotide | 4-mer enrichment [fold]
GCUU | 0.73
GCGU | 1.04
GCUA | 0.733
CAUC | 0.676
CGAU | 0.71
CUGC | 0.719
UCAG | 0.811
AAUA | 1.02
UUGG | 1.09
